Results pooled from the literature.
Parts stem from different laboratories: compare values within a part only.

Study 1
Target: RNA binding protein fox-1 homolog 2, RRM domain, GST-SBP tag (RBFOX2, Homo sapiens, UniProt O43251-10, residues 100-194)
Method: RNA Bind-n-Seq
Form: RNA
Medium: in vitro
Concentration: 365 nM
Notes: natural RNA segment, single round, ends assumed
Baseline: no-protein control
Reading: higher = stronger binding
Target sequence (chain): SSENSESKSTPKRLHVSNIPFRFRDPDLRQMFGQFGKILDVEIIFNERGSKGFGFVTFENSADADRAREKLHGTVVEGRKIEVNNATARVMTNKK
Under “RBNS enrichment (R)”, `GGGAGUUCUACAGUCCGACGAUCAAUUGUUUAUAGUGACCACACUAAUUAUUUUAACUGUACACAUCAGUUUAACAUCUUUUAAAAUUUGAACACUACGUAGUAGGGUGACUAAUUUUUGAAGAAUAUCACAAUGGAAUUCUCGGGUGCCAA` is recorded as 0.437.
`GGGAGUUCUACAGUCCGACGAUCUUAUAGAGAAUUUGAUCUGCUCCGUGUGCGCUCUCUGCUAUUAGCCGGAGCUAUUUAUGGCAAACACAUGCUUUUGUAUCUUGUCAUAGUCAUCCACAGAUGGCAAAACUUGGAAUUCUCGGGUGCCAA` — result for “RBNS enrichment (R)”: 0.235.
`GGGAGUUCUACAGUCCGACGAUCGUCUCUCUUGGGGUAAACUUGCUACCCCUGUGGUUGGGUCUAUGGUGGGAAAUGAAACAGUGUUCUGAUCCAUUGCCAAAGGAUGUAGGAAAACAGUUGGGUUUUGUUCAUGGAAUUCUCGGGUGCCAA`: “RBNS enrichment (R)” 0.958.
For `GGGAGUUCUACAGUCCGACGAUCUUGGGGCGUGGUGAGUUGGAAUGAUACGUCCAUUUCUCUAUGAAAUAUUUGCUACUAGACUGUUCAUUUCUCUCUGACAUGUUUGUUGAAUGAAUAAAUAAUUUGAAACUUGGAAUUCUCGGGUGCCAA`, “RBNS enrichment (R)” read 4.26.
Under “RBNS enrichment (R)”, `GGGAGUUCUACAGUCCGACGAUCUCUUGCCAAAUAAGGGCCUGCUCCUCGUGGGAGACCACAGGUGUACAGUCGGUGGCCUUGUACCUGGGGGAGGUGGCUUAGGGCUUCUACCUCUGGGGGUAGAGGGAAGAUGGAAUUCUCGGGUGCCAA` is recorded as 0.275.
`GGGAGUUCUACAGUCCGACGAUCAGCGUUGCUGAUGGAAGCAGCGUGUGAAGGGAUACGGACAAUCUCUCAGUCGAUGAGCCCUCGUCUGACUGACCAGAGUGGCCCAGCUUCUAUUCAAUUGGGAAAAUUUGUGGAAUUCUCGGGUGCCAA` — result for “RBNS enrichment (R)”: 0.397.
Under “RBNS enrichment (R)”, `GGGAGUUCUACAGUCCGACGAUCGCCCUGCAGCACUGCCCCAAGAAGAAGCUGUGCCUGCCCACUGGCACACAGCUGGCACUGGCACACACCUGUCCCAUGCCCACCCUGAGGGAUCAGGAGCAAACAGACCCUGGAAUUCUCGGGUGCCAA` is recorded as 0.168.
Under “RBNS enrichment (R)”, `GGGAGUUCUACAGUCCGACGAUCUCAUCGAAGAGACCAGCUCUGACACAGACUAAAAGCAUCACCUGCUCAACUCUCAAUAUUGCUUUAUCAGCAUCUUUUCUCUGUAGCUCCAGGGGAAUCUUUUCUCUAAAUGGAAUUCUCGGGUGCCAA` is recorded as 0.33.
`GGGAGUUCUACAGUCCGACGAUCAAAAGUAAACCAAACAAAACGAAUGAAAAACUGGAAAUAAUUCGUUUCCAUAUCUUUCCAUACAUCCAUUUCUGAAGUAUUCAGGAAUGUUUUCAUAAUCGAAAGAAACGUGGAAUUCUCGGGUGCCAA`: “RBNS enrichment (R)” 0.385.

Study 2
Target: RING finger protein unkempt homolog, zinc fingers 1-6, GST-SBP tag (UNK, Homo sapiens, UniProt Q9C0B0, residues 30-357)
Method: RNA Bind-n-Seq
Form: RNA
Medium: in vitro
Concentration: not given
Notes: RNA with constant flanks, ends assumed
Baseline: input RNA pool
Reading: higher = stronger binding
Residues (chain): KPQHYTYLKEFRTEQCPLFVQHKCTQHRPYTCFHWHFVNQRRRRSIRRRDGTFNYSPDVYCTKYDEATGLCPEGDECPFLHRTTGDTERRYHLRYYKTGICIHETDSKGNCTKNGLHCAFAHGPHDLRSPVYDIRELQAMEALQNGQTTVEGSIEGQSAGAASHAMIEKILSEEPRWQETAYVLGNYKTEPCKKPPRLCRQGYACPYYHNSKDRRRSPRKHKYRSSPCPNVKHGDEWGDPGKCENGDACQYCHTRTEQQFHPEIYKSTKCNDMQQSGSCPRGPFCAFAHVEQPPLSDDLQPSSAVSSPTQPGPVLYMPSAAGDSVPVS
`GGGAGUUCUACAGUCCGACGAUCACACACACACACACUCUCUGAGCACAUUAUCUGUGAUUCUUUCAUCCUCCCAGAAAGGAUCAGUGUCCGAAUGGGAAAUAGAGUGUGCCAUCUUGCUCUUUUGUUGGCAGAUGUCCCCGCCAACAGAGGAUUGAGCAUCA` has a bound/input enrichment of 0.758 ratio.
The bound/input enrichment of `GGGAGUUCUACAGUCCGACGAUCGAGGAUGCUGCCUCCUACGUUAGAAAGGUUAUUCCAAAAGAUUAUAAGACAAUGGCUGCUUCCGCCAAGGCCAUCGAAAAGAAUGUGCUGUUUUCACACCUUGAUGAUAACGAGAGAAGUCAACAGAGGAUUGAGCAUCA` is reported as 1.74 ratio.
The bound/input enrichment of `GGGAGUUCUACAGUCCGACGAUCCUCUGUCCUGAGUGUGAGAAUCCUGAAACAGAUCUGCAUGUCAAUCCAAAGAAGCAAACAACCGGUAAUUCUUGUAAAGCCUGUGGGUACCGAGGCAUGCUUGACACACAUCAUAAACUCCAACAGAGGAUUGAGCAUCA` is reported as 0.187 ratio.
The bound/input enrichment of `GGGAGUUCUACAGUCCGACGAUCGACCGCCUGGUAGCCUUUCCUACUCGAGUAGCAGGUGGAAUUGGAAUCACCUGUUGGAUUUCCGUCUGUAACAAAGUUGUGGCUAUCGUUCUCCACCCUUUCAGCUGAGGGGAAGGCCAGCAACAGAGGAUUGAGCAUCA` is reported as 0.182 ratio.
`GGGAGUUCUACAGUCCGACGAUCAAGACGAAGCUGGACACUCUAGCCACUGGUCAUCUCUUCCAGGAAGUGAGGUGCAUGAAACCCGUGCAGCACCCCAACAUUGUGCGUCUCUAUGAAGUCAUAGACACCCAGACCAAACUUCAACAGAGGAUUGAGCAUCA` has a bound/input enrichment of 0.117 ratio.
The bound/input enrichment of `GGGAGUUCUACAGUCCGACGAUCAGUUUGUGCCGUUGCCCUUUCCCCAUAUGCCACUAGUGUGUAGGCAGAUGUCUGAGUCUCCCGGUGGUUUCUCCAUUUUAUAGCAGUUAGCUUUGAUGACCCUACUCCACGAAAAAUAAACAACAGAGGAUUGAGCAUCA` is reported as 0.796 ratio.
`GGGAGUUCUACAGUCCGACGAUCCAUGGACAGCAAGCCUUGGGUAACCGGACCAGGCCAAGGGUCUACAAUUCUCCAACAAACCGCUCCUCUACCCAGGAUUCUAUGGAGGUUGGCCACAGUCACCACUCCAUGACAUCCCUGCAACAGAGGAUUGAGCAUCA` gave a bound/input enrichment of 0.0439 ratio.
`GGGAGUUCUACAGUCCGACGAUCAUUCUGCUGGGCAAUGGCACCCUGCCCGCCACCAUCCUCACCAGUCUCUUCACCGACAGCUCCGUCAAAGAAGGCAUUGCGGCCUCAUUUGCUGUCAAGCUUUUCAAAGCAUGGAUGGCACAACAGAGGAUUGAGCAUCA` has a bound/input enrichment of 0.0978 ratio.
For `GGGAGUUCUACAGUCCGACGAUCGUCACAAGUAGGUUGGUAGAAAACAACCUGAUUCUGACCCUUUCUUUUUUUUUUUCCUGUUUCCGUCUCAGUAGAUCUUUUCAAGCACUGUCCUUACAGCUCAUGAAUGUUUAGGUCUUUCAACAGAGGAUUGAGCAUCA`, the bound/input enrichment was 0.633 ratio.
With `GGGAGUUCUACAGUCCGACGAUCGAUGGCAAUGGCCAGGAGGCCUAUGCCUCAAGCUGUAACAGUGGCACGUCCUACAAUUCCAUCCGCUCAGUGGUGUCCCGGUGAGGGCAGCCUUGGCUUGGGUAGGGUCUUUAUGGACUGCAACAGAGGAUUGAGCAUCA` the bound/input enrichment was 0.0763 ratio.
`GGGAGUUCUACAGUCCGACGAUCGAGAUACCAGGACAGAGUCAUUGCUACAUAUGUUUGACCUGAUCUAGCCUUUUCCAAAUGAACCGCCUCAACUCUGUUGUAAAGAAAGUUUUAUUUGUAUUUUACUACUAUUGGGUCAAUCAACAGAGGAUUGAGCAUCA` has a bound/input enrichment of 0.941 ratio.

Study 3
Target: PABPC1L2, full length, GST fusion (mouse, UniProt A0ABA7IW68)
Method: RNAcompete
Form: RNA
Medium: in vitro
Concentration: 20 nM
Notes: 7-mer, probes averaged, single round
Baseline: mean of 7-mers
Reading: higher = stronger binding
Construct (chain): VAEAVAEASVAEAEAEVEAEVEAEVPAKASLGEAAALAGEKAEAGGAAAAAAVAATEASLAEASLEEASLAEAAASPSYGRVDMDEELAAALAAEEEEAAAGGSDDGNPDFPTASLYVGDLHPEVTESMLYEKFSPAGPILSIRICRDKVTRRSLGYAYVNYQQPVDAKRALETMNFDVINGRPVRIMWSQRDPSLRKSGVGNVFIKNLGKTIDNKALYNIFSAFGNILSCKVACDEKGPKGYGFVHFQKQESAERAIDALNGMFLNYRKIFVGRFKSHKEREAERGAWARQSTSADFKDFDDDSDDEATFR
For `GGACCGU`, the 7-mer Z-score was -0.113.
For `GAAGCUA`, the 7-mer Z-score was 0.0207.
The 7-mer Z-score of `UAACACA` is reported as 0.0623.
`CUUGUAU` gave a 7-mer Z-score of -0.257.
`GAGGACG` gave a 7-mer Z-score of 0.309.
With `GGAUGGA` the 7-mer Z-score was 0.113.
For `CGGCGAA`, the 7-mer Z-score was 0.305.
`CACUGGA` gave a 7-mer Z-score of -0.0101.
With `GGGUUGA` the 7-mer Z-score was 0.274.
With `UCGCCGC` the 7-mer Z-score was -0.409.
The 7-mer Z-score of `CUGAGUC` is reported as -0.311.
For `AAGCCAG`, the 7-mer Z-score was 0.0497.
With `GUCCGAG` the 7-mer Z-score was -0.204.
With `UCCUAGU` the 7-mer Z-score was -0.402.
For `GGCGCGA`, the 7-mer Z-score was -0.0301.
`UCGAAUA` gave a 7-mer Z-score of 0.0152.
The 7-mer Z-score of `GCGCGUA` is reported as -0.228.
`GGUUGGG` gave a 7-mer Z-score of 0.106.
The 7-mer Z-score of `CCAACUG` is reported as -0.175.
The 7-mer Z-score of `UGGUAGA` is reported as 0.00436.
For `UUAGAUG`, the 7-mer Z-score was -0.2.
`UUCCUAG` has a 7-mer Z-score of -0.139.
The 7-mer Z-score of `CCCGGUC` is reported as -0.293.
The 7-mer Z-score of `AAACAUC` is reported as 1.73.

Study 4
Target: Ras GTPase-activating protein-binding protein 1, full length (G3BP1, Homo sapiens, UniProt Q13283)
Sequence of UniProt Q13283 (whole entry, looked up): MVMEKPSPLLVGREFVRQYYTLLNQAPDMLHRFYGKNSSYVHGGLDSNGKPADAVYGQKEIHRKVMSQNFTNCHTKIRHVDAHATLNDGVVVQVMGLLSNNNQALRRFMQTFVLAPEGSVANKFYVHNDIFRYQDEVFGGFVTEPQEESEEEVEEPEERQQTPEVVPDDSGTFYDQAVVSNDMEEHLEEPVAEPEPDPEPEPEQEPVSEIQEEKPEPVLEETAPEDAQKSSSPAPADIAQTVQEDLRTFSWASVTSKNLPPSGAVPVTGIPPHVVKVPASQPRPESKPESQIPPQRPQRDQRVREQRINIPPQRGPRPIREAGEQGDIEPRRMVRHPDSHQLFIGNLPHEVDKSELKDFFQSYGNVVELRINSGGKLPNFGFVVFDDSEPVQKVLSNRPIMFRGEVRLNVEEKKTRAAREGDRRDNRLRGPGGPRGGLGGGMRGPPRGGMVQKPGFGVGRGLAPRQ
Method: RNA Bind-n-Seq
Form: RNA
Medium: in vitro
Concentration: 200 nM
Notes: whole 134-nt RNA, ends assumed
With: 150 mM LiCl
Baseline: input library
Reading: higher = stronger binding
Library: 7-deaza-guanosine replaces G
With `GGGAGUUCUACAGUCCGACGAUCCUCAAGUCCUGUGCUACACAUCGUAUGUACCGAAUCGGCCCGGCCCGGCCCGGAAAGUAUUAUGUUACGCCGUUCGGAUCUGCACUUCCAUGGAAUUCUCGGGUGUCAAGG` the log2 enrichment was 0.0803.
The log2 enrichment of `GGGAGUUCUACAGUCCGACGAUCAAGUCCUGUGCUACACAUCGUAUGUACCGAAUCGGGAAAGGGUUUUUGGGUUUGGGAAAGUAUUAUGUUACGCCGUUCGGAUCUGCACUUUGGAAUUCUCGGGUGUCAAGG` is reported as -1.82.
For `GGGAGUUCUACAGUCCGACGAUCUAUUAAUUUGAUAUAUUUAUUAUGAUUUGUAGAGGACGUCGGUGAUGAAGGAGAAGAAGAAAAAGAAUUCAUUUCCUAUAACAUCAACAUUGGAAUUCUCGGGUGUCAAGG`, the log2 enrichment was -3.86.
`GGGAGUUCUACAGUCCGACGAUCGUCCUGUGCUACACAUCGUAUGUACCGAAUCGGUUUUUGGAAAAAAAGGUUUUUUUGGAAAGUAUUAUGUUACGCCGUUCGGAUCUGCACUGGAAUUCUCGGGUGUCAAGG` gave a log2 enrichment of -2.52.
The log2 enrichment of `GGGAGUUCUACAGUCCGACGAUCCAAGUCCUGUGCUACACAUCGUAUGUACCGAAUCGGGUUUGGGUUUGGUUUGGGGAAAGUAUUAUGUUACGCCGUUCGGAUCUGCACUUCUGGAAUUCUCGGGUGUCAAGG` is reported as -0.427.
With `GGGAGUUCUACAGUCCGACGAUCUGCUGGAGUGGCAGAAGACUUUUGAGGAGAAGCUCACGCCGUUGCUGAGUGUGCGGGAGUCACUCUCAGAGGAAGAGGCCCAGAAGAUGGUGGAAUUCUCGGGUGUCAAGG` the log2 enrichment was -1.61.
For `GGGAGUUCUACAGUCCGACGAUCCAAGUCCUGUGCUACACAUCGUAUGUACCGAAUCGGGUUUGGGUUUGGGUUUGGGGAAAGUAUUAUGUUACGCCGUUCGGAUCUGCACUUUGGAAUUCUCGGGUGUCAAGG`, the log2 enrichment was -0.637.
With `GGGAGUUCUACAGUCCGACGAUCAGUCCUGUGCUACACAUCGUAUGUACCGAAUCGGGUUUUUGGGAAAAAGGGUUUGGGAAAGUAUUAUGUUACGCCGUUCGGAUCUGCACUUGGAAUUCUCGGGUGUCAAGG` the log2 enrichment was -2.57.
